Experimental data from different studies.
Chain of UniProt P39656 (whole entry, looked up): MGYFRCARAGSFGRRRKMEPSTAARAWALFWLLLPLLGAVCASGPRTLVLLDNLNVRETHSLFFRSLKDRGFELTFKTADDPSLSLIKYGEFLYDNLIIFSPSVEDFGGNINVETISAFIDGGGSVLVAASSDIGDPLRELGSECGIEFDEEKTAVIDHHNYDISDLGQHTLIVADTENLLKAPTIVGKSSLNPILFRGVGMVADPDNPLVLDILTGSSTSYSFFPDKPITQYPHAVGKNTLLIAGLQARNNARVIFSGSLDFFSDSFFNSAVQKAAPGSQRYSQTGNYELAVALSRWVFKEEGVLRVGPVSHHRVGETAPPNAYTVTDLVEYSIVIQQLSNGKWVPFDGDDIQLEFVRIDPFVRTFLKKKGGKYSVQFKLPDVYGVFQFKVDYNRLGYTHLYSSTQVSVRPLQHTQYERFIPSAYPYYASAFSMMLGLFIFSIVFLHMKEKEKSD

`CC[C@H](C)[C@@H]1NC(=O)[C@@H]2CCCN2C(=O)[C@H](CC(C)C)NC(=O)[C@H](CC(C)C)NC(=O)CNC(=O)[C@@H](NC(=O)[C@@H](NC(=O)[C@H](CC(=O)O)NC(=O)CNC(=O)[C@@H](NC(=O)[C@H](C)NC(=O)CNC(=O)[C@H](CCCCN)NC(=O)[C@H](CC(C)C)NC(=O)[C@H](CC(C)C)NC(=O)[C@H](CCCCN)NC(=O)CNC(=O)[C@@H](NC(=O)[C@@H](N)CC(C)C)C(C)C)C(C)C)C(C)C)CSSC[C@@H](C(=O)O)NC1=O`: “log2 fold change” -1.78 (RNA-seq, refers to: Tes mRNA; mouse traumatic brain injury, frontal cortex and hippocampus; dose not given; relative to: TBI plus compound vs TBI).
`Cc1cc(C(=O)NC(C)(C)COc2cccc3c2C(N)=NS(=O)(=O)N3)cc(C)n1` has a revertant ratio of 1.4 (Escherichia coli; Ames test, initial; WP2 uvrA; 5000 µg/plate; relative to: solvent control).
The tissue uptake of `CC[C@H](C)[C@H](NC(=O)[C@H](Cc1ccccc1)NC(=O)[C@H](CCC(=O)O)NC(=O)[C@H](CCCNC(=N)N)NC(=O)[C@H](C)NC(=O)[C@H](C)NC(=O)[C@H](CCC(N)=O)NC(=O)[C@H](CCC(=O)O)NC(=O)[C@H](CCC(=O)O)NC(=O)[C@H](CC(C)C)NC(=O)[C@H](Cc1ccc(O)cc1)NC(=O)[C@H](CO)NC(=O)[C@H](CO)NC(=O)[C@@H](NC(=O)[C@H](CC(=O)O)NC(=O)[C@H](CO)NC(=O)[C@@H](NC(=O)[C@H](Cc1ccccc1)NC(=O)[C@@H](NC(=O)CNC(=O)[C@H](CCC(=O)O)NC(=O)[C@H](C)NC(=O)CCc1c[nH]cn1)[C@@H](C)O)[C@@H](C)O)C(C)C)C(=O)N[C@@H](C)C(=O)N[C@@H](Cc1c[nH]c2ccccc12)C(=O)N[C@@H](CC(C)C)C(=O)N[C@H](C(=O)N[C@@H](CCCNC(=N)N)C(=O)NCC(=O)N[C@@H](CCCNC(=N)N)C(=O)N[C@@H](CCCCNC(=O)COCCOCCNC(=O)COCCOCCNC(=O)CC[C@H](NC(=O)CCCCCCCCCCCCCCCCC(=O)O)C(=O)O)C(=O)NCC(=O)NCC(=O)N[C@@H](CO)C(=O)N[C@@H](CCCCNc1c(NCCCCCN(O)C(=O)CCC(=O)NCCCCCN(O)C(=O)CCC(=O)NCCCCCN(O)C(C)=O)c(=O)c1=O)C(=O)O)C(C)C` [zirconium-89 labelled] is reported as 0.5 %ID/g (ex vivo gamma counting; rat, skin at injection site; subcutaneous, 3 nmol/kg, 168 h).
The remaining binding of `C[C@H]1CN(c2n[nH]c3nc(N[C@H]4CC[C@H](NS(=O)(=O)CCC(F)(F)F)CC4)ncc23)CCO1` is reported as 1.08 (Dolichyl-diphosphooligosaccharide--protein glycosyltransferase 48 kDa subunit (Homo sapiens, UniProt P39656); Kinobeads competition, refers to: DDOST; 0.032 µM, unit not given; relative to: vehicle).
`COc1cc2c(Oc3ccc4[nH]c(C)cc4c3F)ccnc2cc1OCC1(N)CC1` — result for “grade 3 Hematuria”: 0% (paediatric recurrent refractory sarcoma; 12 mg).
The survival of `OC(CCN1CC=C(c2ccc(F)cc2)CC1)c1ccc(F)c2ccccc12` (stereo not shown) is reported as 102% (Salmonella typhimurium; SOS/umu test; TA1535/pSK1002; 0.002 mg/mL, 4 h, without S9, lower range).
With `COc1cc(Nc2ncc(F)c(Nc3ccc4c(n3)NC(=O)C(C)(C)O4)n2)cc(OC)c1OC` the IC50 was > 10 µM (GLP1R (Homo sapiens, UniProt P43220); binding).
For `CC[C@H](C)[C@H](NC(=O)[C@H](CC(C)C)NC(=O)[C@@H](NC(=O)[C@@H](NC(=O)[C@@H](NC(=O)[C@H](CCCNC(=N)N)NC(=O)[C@H](CCCNC(=N)N)NC(=O)[C@H](CCCNC(=N)N)NC(=O)[C@@H](N)CCCNC(=N)N)C(C)C)[C@@H](C)CC)[C@@H](C)CC)C(=O)N[C@@H](CO)C(=O)N[C@@H](CC(C)C)C(=O)N[C@@H](CCCNC(=N)N)C(=O)N[C@@H](CCCNC(=N)N)C(=O)N[C@@H](CCCNC(=N)N)C(=O)N[C@@H](CCCNC(=N)N)C(=O)N[C@@H](Cc1ccccc1)C(=O)N[C@@H](CO)C(=O)N[C@@H](C)C(=O)N[C@@H](Cc1ccc(O)cc1)C(N)=O`, the hemolysis was 25% (human erythrocytes; 400 µM, 1 h; relative to: Triton X-100).
`CN1CC[C@@H](c2c(O)cc(O)c3c(=O)cc(-c4ccc(C(F)(F)F)cc4Cl)oc23)[C@@H]1CO` — result for “patients with adverse event”: 12.5% (refers to: Sepsis; relapsed or refractory haematological malignancies; oral, dose not given, all arms).
`CCCCCC(=O)N[C@@H](CCCNC(=N)N)C(=O)N[C@@H](CCCNC(=N)N)C(=O)N[C@@H](CCCNC(=N)N)C(=O)N[C@@H](CCCNC(=N)N)C(=O)N[C@H](C(=O)N[C@@H](CC(C)C)C(=O)N[C@H](C(=O)N[C@@H](CCCCN)C(=O)N[C@@H](CCCCN)C(=O)N[C@H](C(=O)N[C@@H](CC(C)C)C(=O)N[C@@H](CCCCN)C(=O)N[C@@H](CC(C)C)C(=O)N[C@@H](CCCCN)C(=O)N[C@@H](CO)C(=O)N[C@@H](CO)C(=O)N[C@@H](C)C(=O)N[C@@H](Cc1ccc(O)cc1)C(N)=O)C(C)C)[C@@H](C)CC)[C@@H](C)CC` has a hemolysis of 3% (human erythrocytes; 400 µM, 1 h; relative to: Triton X-100).
Under “patients with TEAE”, `Cc1cn([C@H]2O[C@@H](CO[P@@](=O)(N[C@@H](C)C(=O)OC(C)C)Oc3ccccc3)[C@H](O)[C@H]2F)c(=O)[nH]c1=O` is recorded as 0% (refers to: Thrombocytosis; human; 25 mg).
`CO[C@H]1C[C@@H]2CC[C@@H](C)[C@@](O)(O2)C(=O)C(=O)N2CCCC[C@H]2C(=O)O[C@H]([C@H](C)C[C@@H]2CC[C@@H](OC(=O)NCCOCCOCCOCCOCCOCCOCCOCCOCCC(=O)N3CCc4cc(Cn5nc(-c6ccc7oc(N)nc7c6)c6c(N)ncnc65)ccc4C3)[C@H](OC)C2)C[C@@H](O)[C@H](C)/C=C(\C)[C@@H](O)[C@@H](OC)C(=O)[C@H](C)C[C@H](C)/C=C/C=C/C=C/1C` — result for “AE leading to discontinuation”: 12.5% (patients with advanced solid tumours; intravenous, 8 mg weekly, grade 3 or higher).
The solubility of `C#Cc1ccc2c(c1)C(c1ccccn1)=NCc1c(-c3cnco3)ncn1-2.Cl` is reported as 4610 µg/mL (DMF; 24 h, 25 °C, thermodynamic equilibrium).

Some of these lines once more:
`CN1CC[C@@H](c2c(O)cc(O)c3c(=O)cc(-c4ccc(C(F)(F)F)cc4Cl)oc23)[C@@H]1CO` — result for “patients with adverse event”: 12.5% (refers to: Sepsis; relapsed or refractory haematological malignancies; oral, dose not given, all arms).
`CCCCCC(=O)N[C@@H](CCCNC(=N)N)C(=O)N[C@@H](CCCNC(=N)N)C(=O)N[C@@H](CCCNC(=N)N)C(=O)N[C@@H](CCCNC(=N)N)C(=O)N[C@H](C(=O)N[C@@H](CC(C)C)C(=O)N[C@H](C(=O)N[C@@H](CCCCN)C(=O)N[C@@H](CCCCN)C(=O)N[C@H](C(=O)N[C@@H](CC(C)C)C(=O)N[C@@H](CCCCN)C(=O)N[C@@H](CC(C)C)C(=O)N[C@@H](CCCCN)C(=O)N[C@@H](CO)C(=O)N[C@@H](CO)C(=O)N[C@@H](C)C(=O)N[C@@H](Cc1ccc(O)cc1)C(N)=O)C(C)C)[C@@H](C)CC)[C@@H](C)CC` has a hemolysis of 3% (human erythrocytes; 400 µM, 1 h; relative to: Triton X-100).
